Published values gathered from unrelated publications.
Parts stem from different laboratories: compare values within a part only.

Sample 1
Target: Histone acetyltransferase KAT6A, winged helix 2, GST fusion (KAT6A, Homo sapiens, UniProt Q92794, residues 85-181)
Technique: protein binding microarray
Molecule type: double-stranded DNA, one strand shown
Sample: in vitro
Concentration: not given
Notes: 8-mer, flanks averaged, mean of 2 arrays, mostly near background
Baseline: not given
Reading: higher = stronger binding
Residues (chain): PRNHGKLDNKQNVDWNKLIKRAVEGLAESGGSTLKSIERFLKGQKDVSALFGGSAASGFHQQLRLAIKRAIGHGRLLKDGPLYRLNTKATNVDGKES
Strand	E-score
AGACTAAG	-0.0506
GGTGCAGA	-0.0696
AACCTATT	-0.116
AATCCTTC	-0.0946
CATTTTTA	-0.0825
AAAAGTTG	-0.158
CCATGAAG	0.00958
ACCTAACG	-0.12
CCCATGGG	0.0869
AAGTGCGG	0.0367
GAACGTGC	-0.161
GGCGTCAA	0.176
CCGATAAC	-0.00553
GCCGCGCA	0.2
AGTGCTCG	-0.017
ACCGCTCT	-0.0372
ACGCATGC	0.153
CAAAATGC	0.0392
CAGTCAAC	-0.102
GATAGAGA	-0.0163
AATCGCTA	-0.108
CTTCAGCA	-0.0556
AGTACAAC	0.047
AGATCTTC	0.0154
ACTTTTAG	-0.0346

Sample 2
Target: Ras GTPase-activating protein-binding protein 1, full length (G3BP1, Homo sapiens, UniProt Q13283)
UniProt Q13283, sequence (whole entry, looked up): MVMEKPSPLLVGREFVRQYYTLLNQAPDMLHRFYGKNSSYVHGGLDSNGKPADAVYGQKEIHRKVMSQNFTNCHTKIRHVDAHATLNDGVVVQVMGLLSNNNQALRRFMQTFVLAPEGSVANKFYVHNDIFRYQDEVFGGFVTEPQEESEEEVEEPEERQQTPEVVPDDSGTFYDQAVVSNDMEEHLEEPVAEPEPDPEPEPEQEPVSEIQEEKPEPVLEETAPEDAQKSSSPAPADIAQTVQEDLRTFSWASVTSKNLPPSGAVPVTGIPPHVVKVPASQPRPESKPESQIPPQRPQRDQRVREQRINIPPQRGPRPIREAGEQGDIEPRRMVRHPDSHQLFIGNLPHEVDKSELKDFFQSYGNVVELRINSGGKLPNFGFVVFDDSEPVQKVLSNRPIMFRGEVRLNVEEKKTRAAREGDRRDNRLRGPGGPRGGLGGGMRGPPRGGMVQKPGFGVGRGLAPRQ
Technique: RNA Bind-n-Seq
Molecule type: RNA
Sample: in vitro
Concentration: 200 nM
Notes: whole 134-nt RNA, ends assumed
With: 150 mM LiCl
Baseline: input library
Reading: higher = stronger binding
Each molecule: 7-deaza-guanosine replaces G
Strand	log2 enrichment
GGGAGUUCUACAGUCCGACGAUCCUCAAGUCCUGUGCUACACAUCGUAUGUACCGAAUCGGUUUGGAAAAAGGAGGAAAGUAUUAUGUUACGCCGUUCGGAUCUGCACUUCCAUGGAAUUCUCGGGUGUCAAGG	0.187
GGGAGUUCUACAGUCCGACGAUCCACAGACAACACGCACCCACACAGACACAGAGGGAAGGGGUUGGGAUGGGGACAGGGUGCACAGCAGGGCAAAGUAGGACCCCAGCCCCUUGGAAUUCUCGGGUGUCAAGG	0.125
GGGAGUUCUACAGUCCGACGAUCCCUCAAGUCCUGUGCUACACAUCGUAUGUACCGAAUCGGAAGGGAAGGGAAGGAAAGUAUUAUGUUACGCCGUUCGGAUCUGCACUUCCAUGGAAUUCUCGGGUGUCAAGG	-0.81
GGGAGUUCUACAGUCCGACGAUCCCUGUGCUACACAUCGUAUGUACCGAAUCGGGGCCCCCCCGGCCCCCCCGGCCCCCCCGGGAAAGUAUUAUGUUACGCCGUUCGGAUCUGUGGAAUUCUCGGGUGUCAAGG	0.484
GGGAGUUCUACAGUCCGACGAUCCAAGUCCUGUGCUACACAUCGUAUGUACCGAAUCGGGAAAAGGAAAAGGAAAAGGAAAGUAUUAUGUUACGCCGUUCGGAUCUGCACUUCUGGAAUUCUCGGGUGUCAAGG	-0.705
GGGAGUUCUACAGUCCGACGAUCUGGCCCUGGUGGCAUGCGGGGAGGAAGAGGUGGCCUCAUGGAUCGUGGUGGUCCCGGUGGAAUGUUCAGAGGUGGCCGUGGUUGAGACAGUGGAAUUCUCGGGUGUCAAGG	-0.229
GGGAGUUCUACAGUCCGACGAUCCACAGACAACACGCACCCACACAGACACAGAGGGAAGGGGUUGGGAUGGGGACAGGGUGCAAAACAGGGCGGGGUAGGACCCCAGCCCCUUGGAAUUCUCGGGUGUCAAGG	0.0381
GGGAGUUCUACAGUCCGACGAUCUGGCCCUGGUGCCAUGCGGGGAGGAAGAGGUGGCCUCAUGGAUCGUGGUGGUCCCGGUGGAAUGUUCAGAGGUGGCCGUGGUGGAGACAGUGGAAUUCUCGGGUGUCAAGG	0.149
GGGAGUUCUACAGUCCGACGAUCUCAAGUCCUGUGCUACACAUCGUAUGUACCGAAUCGGGAAAAAGGGUGGGUGGGAAAGUAUUAUGUUACGCCGUUCGGAUCUGCACUUCCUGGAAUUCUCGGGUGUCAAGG	-0.703

Sample 3
Target: RNA binding protein fox-1 homolog 2, RRM domain, GST-SBP tag (RBFOX2, Homo sapiens, UniProt O43251-10, residues 100-194)
Technique: RNA Bind-n-Seq
Molecule type: RNA
Sample: in vitro
Concentration: 365 nM
Notes: natural RNA segment, single round, ends assumed
Baseline: no-protein control
Reading: higher = stronger binding
Residues (chain): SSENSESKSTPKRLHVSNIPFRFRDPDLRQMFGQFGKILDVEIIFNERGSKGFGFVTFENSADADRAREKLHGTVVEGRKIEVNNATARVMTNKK
Strand	RBNS enrichment (R)
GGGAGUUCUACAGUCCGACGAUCGUCUGAGAAAUUCCUAAGAUCAAUGAAAGAGUGAUAAACUAUUUGUCUCUGAUACAUAAAAUUAUUUUAAGCAUUUUCUCAAUCAUUAAAUGUUACUGCCAGUCAUAAGUUGGAAUUCUCGGGUGCCAA	1.6
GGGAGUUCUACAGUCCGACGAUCAUUACAAGAUUUGGCAGCCAUGAUAAUAGGUCAUAUGUUGUAUUUCGUUUGAUUUUUUUUCUGUAAAUGUCUGCACUAAGGGUUUCUUUCAGUUUGCCUUUUAUGUAAAUUGGAAUUCUCGGGUGCCAA	0.712
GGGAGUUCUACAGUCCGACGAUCGAGCUUUGGACACAGGACCAGUUUGAUAAAGGGCCAGGUAAGGGUUUCCACUCUGCACAUUGUAGAGGGGACACCGAAGGCCCAUGGGUCCCUAAUUAAAGAAGUUGAGUUGGAAUUCUCGGGUGCCAA	1.26
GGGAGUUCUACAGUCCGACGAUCUGGCACAGUGAUGGCCUGUGUCACCGUGUAGUGUCAUAGGCCAUCACUGUGCCAGAGCAAGCACGCUGAGAAGGCUAGUCUCCAUAGUUGAUGGUUAAUGUUACUUCCACUGGAAUUCUCGGGUGCCAA	1.29
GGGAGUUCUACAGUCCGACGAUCAAGAGUAGGGACGCCGUUCCAGCCCCCCUUCCUAUCGUGUCCUUGGGUUCGGGUCACUGCGGCGACGACUUGCUCAGACUGUCCCGGCGGCCGGAGUGACUUUCUCGCACUGGAAUUCUCGGGUGCCAA	0.251
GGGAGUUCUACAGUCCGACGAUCCUCAGGAAAAGGAAGUCAUUUCGUGUUUGUUUCCCACCAAAGAAGAAUGAAUCCAGGGUUUUUCUACUGUUCGUCUGUCCAGGGGUCCCUGAGAUCUGGGCUCCCUUACAUGGAAUUCUCGGGUGCCAA	0.507
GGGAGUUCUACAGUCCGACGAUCAAAAAAAAGUCAAAAGAUAGAGAAUACAAGAAAAGUUUUUGGGAUAUAAUUUGAAUGACUGUGAAAACAUAUGACCUUUGAUAACGAACUCAUUUGCUCACUCCUUGACAUGGAAUUCUCGGGUGCCAA	0.634
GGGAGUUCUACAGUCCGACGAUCGCCCAGGGUCGGAGCCCAGGGCCUCUCCCUUCCUGUCGUUCAAUGGACGUGGUGGUGGCUGUUCCACACCCAUUUUGUUGCAGUUCCUGUGAGACAGGAGAGGCUGAGCCUGGAAUUCUCGGGUGCCAA	0.535
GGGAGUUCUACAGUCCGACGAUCUCAGCUCACACAAUUCCAAAGGAAACUGGCCUUGCUGAGGGUGCUGCCUGCCUGCGAGGCACCUGCCUUGCAGCAGGCUCUCAGCCCUUCCCUCUGAGCUGCUCAGAGAGUGGAAUUCUCGGGUGCCAA	0.21

Sample 4
Target: RING finger protein unkempt homolog, zinc fingers 1-6, GST-SBP tag (UNK, Homo sapiens, UniProt Q9C0B0, residues 30-357)
UniProt Q9C0B0, sequence (30-357, looked up): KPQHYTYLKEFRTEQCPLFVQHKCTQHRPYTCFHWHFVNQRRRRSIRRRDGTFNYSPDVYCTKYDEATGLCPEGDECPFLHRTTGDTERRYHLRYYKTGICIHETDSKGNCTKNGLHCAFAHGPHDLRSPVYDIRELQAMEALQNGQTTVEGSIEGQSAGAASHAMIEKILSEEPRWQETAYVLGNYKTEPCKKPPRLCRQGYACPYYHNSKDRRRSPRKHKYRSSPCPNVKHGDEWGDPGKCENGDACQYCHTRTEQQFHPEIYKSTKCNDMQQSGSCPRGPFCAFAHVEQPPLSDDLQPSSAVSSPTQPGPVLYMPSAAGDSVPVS
Technique: RNA Bind-n-Seq
Molecule type: RNA
Sample: in vitro
Concentration: not given
Notes: RNA with constant flanks, human and mouse sites, ends assumed
Baseline: input RNA pool
Reading: higher = stronger binding
Strand	bound/input enrichment [ratio]
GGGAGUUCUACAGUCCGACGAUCUUGGAUGUGACAGUGCAGUCCUUUGGAUGGUCCGAUAGAGCAAAGGCAAAAACAGAUAACAUAGCAAGAAUUUACCAGCCCAAGCGUUAUGCUCUGUCGCCCAAGACAACAGUCACAUUGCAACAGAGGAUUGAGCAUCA	0.125
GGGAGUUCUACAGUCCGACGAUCCCGACUGUGGAGGAAAAAUGGAGGCUGCUUCCAGCAUUUUUAAAGGUUAAAGGCCUGGUGAAACAGCACAUAGACUCCUUUAACUAUUUCAUUAAUGUAGAGAUAAAGAAGAUAAUGAAACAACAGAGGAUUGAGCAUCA	2.44
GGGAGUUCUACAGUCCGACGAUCGCUGUGGAUUCAGAGAUACUGGAGAUGCCACCUGAAAAAGCAGAUGGAGUAGUGGAGGGGAUAGAUGUAAAUGGACCAAAAGCACAGCUGAUGUUGCGGUAUCCAGAUGGAAAAAGGGAACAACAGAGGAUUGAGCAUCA	1.1
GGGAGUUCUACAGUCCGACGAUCCCACCUCCUAUCAGUCCUACCCAGUUGAGUGAUGUGUCCUCCCCACGAUCAAUAACAUCUACACCACUUUCAGGAAAGGAGUCAGUAUUUUUUGCUGAAGCGCCCUUUAAGGCUGAGAUCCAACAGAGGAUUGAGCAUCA	0.515
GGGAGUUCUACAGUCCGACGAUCAAUGAUGAAGUAACAAUAAAGUAUAAAGAUGAAGAUGGAGAUCUUAUAACAAUUUUUGAUAGUUCUGACCUUUCCUUUGCAAUUCAGUGCAGUAGGAUACUGAAACUGACAUUAUUUGUUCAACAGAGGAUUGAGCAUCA	0.314
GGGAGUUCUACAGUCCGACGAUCAAAAGAUCCAGAAGGAUUUGUUGGGCAUCCAGUAAAUGCAUUCAAAUUAAUGAAACGUCUGAAUACUGAGUGGAGUGAGUUGGAGAAUCUGGUCCUUAAGGAUAUGUCAGAUGGCUUUAUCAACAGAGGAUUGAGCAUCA	0.152
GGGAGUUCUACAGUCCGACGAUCUGGGUGUACACGUUCUCCCGAGCUGCCGUCCUCCUCAGCAUCGUAUACUUCUAUUCUUCUUUCAGUCGGUUUAUCAUGGUAAUGGGAGCCAUGCUGCUGGUUUAUUUACACCAAGCUGGACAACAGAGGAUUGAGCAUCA	0.285
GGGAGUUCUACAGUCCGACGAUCAGUAAGCGGGACUUUAUGCUGAUCACAAACAGAUCCCUGAAAGAGGAAGAUGGAGAAGAAAUAGUUACCUAUGACCAUCUGUGUAAGAACUGUCAUCAUGUAGUAGCCAGACACGAGUAUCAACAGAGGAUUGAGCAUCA	0.962

Some of these lines once more (sample 1):
Strand	E-score
CCATGAAG	0.00958
AGTGCTCG	-0.017
AGATCTTC	0.0154
AAGTGCGG	0.0367
GCCGCGCA	0.2
